Experimental data from different studies.
Lines come from different studies, so protocols differ.
Organism: Streptococcus pneumoniae

SMILES = Cc1cc(C)c2nc3c(Br)cc(Br)c(O)c3nc2c1; method = broth microdilution; strain = 6303; time = 16 h; temperature = 37 °C; MIC = 0.1 µM
SMILES = CN[C@@H]1[C@H](O)[C@H](NC)[C@H]2O[C@]3(O)[C@H](O[C@@H]2[C@H]1O)O[C@H](C)C[C@H]3NC(=O)CNC(C)(C)C; effect on = microbial growth; method = broth dilution; strain = DAW27; MIC = 200 µg/mL
SMILES = c1ccc2c(c1)nc(CNCC13CC4CC(CC(C4)C1)C3)n2CC1CCC1; strain = ATCC 49619; MIC = 4 µg/mL
SMILES = CN[C@@H]1[C@H](O)[C@H](NC)[C@H]2O[C@]3(O)[C@H](O[C@@H]2[C@H]1O)O[C@H](C)C[C@H]3NC(=O)Cc1ccc(Cl)cn1; effect on = microbial growth; method = broth dilution; strain = DAW27; MIC = 25 µg/mL
SMILES = CC[C@H](C)[C@@H]1NC(=O)[C@H](CO)NC(=O)[C@H](CCCCN)NC(=O)[C@@H]2CSSC[C@@H](C(=O)N[C@@H](Cc3ccc(O)cc3)C(N)=O)NC(=O)[C@H](CCCCN)NC(=O)[C@@H]3CSSC[C@H](NC(=O)[C@H](CCCNC(=N)N)NC(=O)[C@H](CC(C)C)NC(=O)[C@H](CC(=O)O)NC(=O)[C@H](CC(=O)O)NC(=O)[C@H](CCC(=O)O)NC(=O)[C@H](CC(N)=O)NC(=O)[C@H](Cc4c[nH]c5ccccc45)NC(=O)C(C)(CC)NC(=O)CNC(=O)[C@H](CC(N)=O)NC(=O)[C@@H](NC(=O)CNC(=O)[C@H](Cc4ccccc4)NC(=O)CN)CSSC[C@H](NC(=O)[C@H](Cc4ccc(O)cc4)NC(=O)CNC(=O)CNC(=O)[C@H](CCCCN)NC(=O)[C@H](Cc4ccc(O)cc4)NC(=O)[C@H]4CCCN4C(=O)[C@@H]4CCCN4C1=O)C(=O)N[C@@H](C)C(=O)N[C@@H](CCCCN)C(=O)N1CCC[C@@H]1C(=O)NCC(=O)N[C@@H](Cc1ccccc1)C(=O)N[C@@H](C(C)C)C(=O)N3)C(=O)N[C@@H](Cc1c[nH]cn1)C(=O)N[C@@H](CC(N)=O)C(=O)N[C@@H](Cc1c[nH]cn1)C(=O)N2 (some centres unmarked); method = broth microdilution; strain = D39; time = 18 h; MIC = 0.5 µM
SMILES = CN[C@@H]1[C@H](O)[C@H](NC)[C@H]2O[C@]3(O)[C@H](O[C@@H]2[C@H]1O)O[C@H](C)C[C@H]3NC(=O)Cc1ccccn1; effect on = microbial growth; method = broth dilution; strain = DAW27; MIC = 100 µg/mL
SMILES = c1ccc(CCNC2CCCc3c2[nH]c2ccc(C4CCCCC4)cc32)cc1 (centres unmarked); method = broth microdilution; strain = serotype 14 700676; matrix = supplemented C+Y medium; MIC = 1.3 µg/mL
SMILES = CC[C@H](C)[C@@H]1NC(=O)[C@H](CO)NC(=O)C(C)(CCCCN)NC(=O)[C@@H]2CSSC[C@@H](C(=O)N[C@@H](Cc3ccc(O)cc3)C(N)=O)NC(=O)[C@H](CCCCN)NC(=O)[C@@H]3CSSC[C@H](NC(=O)[C@H](CCCNC(=N)N)NC(=O)C(C)(CC(C)C)NC(=O)[C@H](CC(=O)O)NC(=O)[C@H](CC(=O)O)NC(=O)[C@H](CCC(=O)O)NC(=O)[C@H](CC(N)=O)NC(=O)[C@H](Cc4c[nH]c5ccccc45)NC(=O)C(C)(CC)NC(=O)CNC(=O)[C@H](CC(N)=O)NC(=O)[C@@H](NC(=O)CNC(=O)[C@H](Cc4ccccc4)NC(=O)CN)CSSC[C@H](NC(=O)[C@H](Cc4ccc(O)cc4)NC(=O)CNC(=O)CNC(=O)[C@H](CCCCN)NC(=O)[C@H](Cc4ccc(O)cc4)NC(=O)[C@H]4CCCN4C(=O)[C@@H]4CCCN4C1=O)C(=O)N[C@@H](C)C(=O)N[C@@H](CCCCN)C(=O)N1CCC[C@@H]1C(=O)NCC(=O)N[C@@H](Cc1ccccc1)C(=O)N[C@@H](C(C)C)C(=O)N3)C(=O)N[C@@H](Cc1c[nH]cn1)C(=O)NC(C)(C)C(=O)N[C@@H](Cc1c[nH]cn1)C(=O)N2 (some centres unmarked); method = broth microdilution; strain = BS-444; time = 18 h; MIC = 2 µM
SMILES = c1ccc2c(c1)nc(CNCC13CC4CC(CC(C4)C1)C3)n2CC1CCCC1; strain = ATCC 49619; MIC = 2 µg/mL
SMILES = CC[C@H](C)[C@@H]1NC(=O)[C@H](CO)NC(=O)C(C)(CCCCN)NC(=O)[C@@H]2CSSC[C@@H](C(=O)N[C@@H](Cc3ccc(O)cc3)C(N)=O)NC(=O)[C@H](CCCCN)NC(=O)[C@@H]3CSSC[C@H](NC(=O)[C@H](CCCNC(=N)N)NC(=O)C(C)(CC(C)C)NC(=O)[C@H](CC(=O)O)NC(=O)[C@H](CC(=O)O)NC(=O)[C@H](CCC(=O)O)NC(=O)[C@H](CC(N)=O)NC(=O)[C@H](Cc4c[nH]c5ccccc45)NC(=O)[C@@H]4CCCN4C(=O)CNC(=O)[C@H](CC(N)=O)NC(=O)[C@@H](NC(=O)CNC(=O)[C@H](Cc4ccccc4)NC(=O)CN)CSSC[C@H](NC(=O)[C@H](Cc4ccc(O)cc4)NC(=O)CNC(=O)CNC(=O)[C@H](CCCCN)NC(=O)[C@H](Cc4ccc(O)cc4)NC(=O)CNC(=O)[C@H](CCCCN)NC1=O)C(=O)N[C@@H](C)C(=O)N[C@@H](CCCCN)C(=O)NCC(=O)NCC(=O)N[C@@H](Cc1ccccc1)C(=O)N[C@@H](C(C)C)C(=O)N3)C(=O)N[C@@H](Cc1c[nH]cn1)C(=O)NC(C)(C)C(=O)N[C@@H](Cc1c[nH]cn1)C(=O)N2 (some centres unmarked); method = broth microdilution; strain = BS-441; time = 18 h; MIC = 0.5 µM
SMILES = Oc1c(Br)cc(Br)c2nc3cc(F)c(F)cc3nc12; method = broth microdilution; strain = 6303; MIC = 0.3 µM

For quick reference, copied from above:
SMILES = CN[C@@H]1[C@H](O)[C@H](NC)[C@H]2O[C@]3(O)[C@H](O[C@@H]2[C@H]1O)O[C@H](C)C[C@H]3NC(=O)Cc1ccccn1; effect on = microbial growth; method = broth dilution; strain = DAW27; MIC = 100 µg/mL
